Assay results gathered from unrelated publications.
Each line is one published result; not all experiments were run side by side. “And” joins repeats or separate records; there may be more than shown. ± marks the error that the study gave. Converted amounts (≈) assume the structure as drawn.
UniProt Q13188, sequence (whole entry, looked up): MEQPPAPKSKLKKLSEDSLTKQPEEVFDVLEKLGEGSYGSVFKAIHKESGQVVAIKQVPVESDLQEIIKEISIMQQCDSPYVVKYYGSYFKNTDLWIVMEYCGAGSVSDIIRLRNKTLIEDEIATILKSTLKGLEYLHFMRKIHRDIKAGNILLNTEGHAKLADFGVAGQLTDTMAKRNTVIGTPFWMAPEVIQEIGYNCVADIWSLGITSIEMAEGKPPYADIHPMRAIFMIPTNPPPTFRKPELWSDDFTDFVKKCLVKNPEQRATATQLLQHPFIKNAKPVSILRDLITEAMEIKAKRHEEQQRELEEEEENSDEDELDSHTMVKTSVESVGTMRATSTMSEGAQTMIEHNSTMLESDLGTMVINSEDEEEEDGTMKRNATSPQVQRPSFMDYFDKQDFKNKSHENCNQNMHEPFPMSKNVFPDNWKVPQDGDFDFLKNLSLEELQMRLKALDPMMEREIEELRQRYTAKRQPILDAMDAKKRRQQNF

`CC[C@@H]1[C@H](F)C(=O)N[C@@H]1COc1nccc2cc(C(N)=O)c(OC)cc12` has an inhibition of -5.9% (Serine/threonine-protein kinase 3 (STK3, Homo sapiens, UniProt Q13188); ATP-site probe binding, ActivX profiling, refers to: MST2; THP-1 cell lysate; 0.04 mM, Lys1 site).
With `CC1=NNC(=O)C1=NNc1ccc(S(N)(=O)=O)cc1` the glucose uptake was 34.3% (Saccharomyces cerevisiae; 50 µg/mL).
`Oc1ccccc1-c1n[nH]cc1-c1ccnc2ccccc12`: “log2 fold change” -0.01 (CDC7 (Candida albicans); kinase binding, MIB/MS competition; Candida albicans lysate; 1 µM; baseline: DMSO).
The body weight of `CC(C)n1ncc2c(C(=O)NCC3(C)CNC3)cc(C3CC3)nc21` is reported as 2.6 g and 2 g and 1.94 g and 2.26 g (Enterovirus D68; US/IL/14-18952, neonatal Swiss Webster mice; intraperitoneal, 50 mg/kg daily, day 0 post infection, immediate treatment).
For `CC(=O)NC[C@H]1CN(c2ccc(N3CCOCC3)c(F)c2)C(=O)O1`, the MIC50 was 1 µg/mL (≈ 2.96 µM) (Streptococcus pyogenes; 10 isolates; pH 8.5).
Under “change in EEG Alpha2-power Fz-Cz”, `OC(CCN1CCCCC1)(c1ccccc1)C1CC2C=CC1C2` (stereo not shown) is recorded as 15.6% (resting-state EEG; healthy elderly humans; oral, 2 mg, eyes closed, LS mean; baseline: baseline).
`CO/N=C(\C(=O)N[C@@H]1C(=O)N2C(C(=O)O)=C(CSc3nc(=O)c(O)nn3C)CS[C@H]12)c1csc(N)n1` gave an MIC of 1 µg/mL (≈ 1.8 µM) (Neisseria gonorrhoeae; broth microdilution; WHO O; 1.5 h).
The glucose uptake of `CC1=NOC(=O)C1=NNc1ccc(S(N)(=O)=O)cc1` is reported as 11.679 ± 0.00065% (Saccharomyces cerevisiae; 10 µg/mL).
Under “log2 fold change”, `Cn1cc(-c2ccc(-c3cncc(Cl)c3N3CCC4(CCNC4=O)CC3)cc2)cn1` is recorded as -2.89 (COLO 205; gene expression, microarray, refers to: SOD1 mRNA; concentration not given, 2 h; baseline: untreated cells).
`CCCCCOc1ccc(-c2ccc(-c3ccc(C(=O)N[C@H]4C[C@@H](O)[C@@H](OCC[N+](C)(C)C)NC(=O)[C@@H]5[C@@H](O)[C@@H](C)CN5C(=O)[C@H]([C@@H](C)O)NC(=O)[C@H]([C@H](O)[C@@H](O)c5ccc(O)cc5)NC(=O)[C@@H]5C[C@@H](O)CN5C(=O)[C@H]([C@@H](C)O)NC4=O)cc3)cc2)cc1`: “free AUC/MIC for 1 log kill” 1.5 (Candida glabrata; 5592, neutropenic mouse, disseminated candidiasis; dose not given, average 24 h AUC over 7 days).
`Cc1cc(OC(C)C)ccc1C(=O)C(C)(C)NC(=O)c1sccc1C` has an inhibition of 97.2 ± 2.5% (Botrytis cinerea; germ tube elongation; B05.10; 3 µg/mL).
With `CN[C@H](CC(C)C)C(=O)N[C@H]1C(=O)N[C@@H](CC(N)=O)C(=O)N[C@H]2C(=O)N[C@H]3C(=O)N[C@H](C(=O)N[C@H](C(=O)O)c4cc(O)cc(O)c4-c4cc3ccc4O)[C@H](O)c3ccc(c(Cl)c3)Oc3cc2cc(c3O[C@@H]2O[C@H](CO)[C@@H](O)[C@H](O)[C@H]2O[C@H]2C[C@](C)(N)[C@H](O)[C@H](C)O2)Oc2ccc(cc2Cl)[C@H]1O` the MIC50 was 2 µg/mL (≈ 1.38 µM) (Staphylococcus epidermidis; methicillin-resistant, 10 isolates; serum 25%).
`CC1=NN(c2cccc(C)c2)C(=O)C1=NNc1ccc(S(N)(=O)=O)cc1` gave a glucose uptake of 52.7% (Saccharomyces cerevisiae; 500 µg/mL).
